# Measured values pooled from the literature.
# Compare with care: the assays were run in different laboratories.
# BRD4 BD1: Bromodomain-containing protein 4, BD1 (BRD4, Homo sapiens, UniProt O60885)
SMILES,target,observed,method,tested at,endpoint,result
N=C(N)NCCC[C@@H]1NC(=O)[C@H](Cc2ccccc2)NC(=O)CSC[C@@H](C(=O)N[C@@H](CC(=O)O)C(N)=O)NC(=O)[C@H](CCCNC(=N)N)NC(=O)[C@H](Cc2c[nH]c3ccccc23)NC(=O)[C@H](Cc2ccc(O)cc2)NC(=O)[C@H](Cc2ccc(O)cc2)NC(=O)[C@H](Cc2ccccc2)NC1=O,BRD4 BD1,thermal stability,DSF,50 µM,ΔTm,-0.56 °C
Cc1cnc(Nc2ccc(OCCN3CCCC3)cc2)nc1Nc1cccc(S(=O)(=O)NC(C)(C)C)c1,BRD4 BD1,,,50 µM,inhibition,99.8%
COc1cc(-c2cn(C)c(=O)c3cnccc23)cc(OC)c1CN(C)C,"Bromodomain-containing protein 4, BD2 (BRD4, Homo sapiens, UniProt O60885)",,,,ΔTm,0.6 °C
O=C1CCCN1c1cccc(NS(=O)(=O)c2c(F)cccc2F)c1,BRD4 BD1,thermal stability,DSF,,ΔTm,0.04 °C
CCn1cc(-c2cccc(C(F)(F)F)c2)c2sc(C(=N)NC3CCS(=O)(=O)CC3)cc2c1=O,BRD4 BD1,,,1 µM,inhibition,2.57%
COc1ccc(Br)cc1S(=O)(=O)Nc1cccc(N2CCCC2=O)c1,BRD4 BD1,thermal stability,DSF,,ΔTm,0.62 °C
Cn1cc(-c2cc(N3CCCCS3(=O)=O)ccc2N[C@H]2CC[C@H](C)CC2)c2cc[nH]c2c1=O (stereo in doubt),BRD4 BD1,binding,competition with immobilised ligand,1 µM,remaining binding,0.05%
CN(C(=O)[C@@H]1CSCC(=O)N[C@@H](Cc2ccccc2)C(=O)N[C@@H](CO)C(=O)N[C@@H](Cc2ccccc2)C(=O)N[C@@H](Cc2ccc(O)cc2)C(=O)N[C@@H](Cc2ccc(O)cc2)C(=O)N[C@@H](Cc2c[nH]cn2)C(=O)N[C@@H](Cc2c[nH]c3ccccc23)C(=O)N1)[C@@H](Cc1ccccc1)C(N)=O,BRD4 BD1,thermal stability,DSF,50 µM,ΔTm,-0.59 °C

# Repeated from above:
SMILES,target,observed,method,tested at,endpoint,result
COc1cc(-c2cn(C)c(=O)c3cnccc23)cc(OC)c1CN(C)C,"Bromodomain-containing protein 4, BD2 (BRD4, Homo sapiens, UniProt O60885)",,,,ΔTm,0.6 °C
